{"data": "Published values gathered from unrelated publications", "note": "“And” joins repeats or separate records; there may be more than shown. ± marks the error that the study gave."}
{"Structure (SMILES)": "Cc1c(C(=O)O)ccc2c3n(nc12)[C@@H]1[C@H](C3)N(CC2CC2)[C@@]2(C(=O)Nc3cc(Cl)ccc32)[C@H]1c1cccc(Cl)c1F", "system": "female BALB/c nude mouse, SJSA-1 xenograft, plasma", "conditions": "oral, 2 mg/kg once daily, 4 h", "plasma concentration": "2.18 µM"}
{"Structure (SMILES)": "C[C@@H](O)[C@H]1C(=O)N2C(C(=O)O)=C(S[C@@H]3CN[C@H](C(=O)N(C)C)C3)[C@H](C)[C@H]12", "system": "BALB/c mouse, male, plasma", "conditions": "intraperitoneal, dose not given, 4 h, together with: combination treatment", "plasma concentration": "11700 ng/mL"}
{"Structure (SMILES)": "CC(=O)NCc1cc2c(cc1F)C(=O)N(C1CCC(=O)NC1=O)C2 (centres unmarked)", "system": "CD-1 mouse, male", "conditions": "oral, 10 mg/kg parent drug, 0.67 h", "plasma concentration": "5.1 ± 0.3 ng/mL"}
{"Structure (SMILES)": "CCCCCN1C[C@H](O)[C@@H](O)[C@H](O)[C@@H]1CO", "test": "LC-MS/MS", "system": "mouse Hexb-/- male, plasma", "conditions": "30 mg/kg/day, arithmetic mean", "plasma concentration": "230 ng/mL"}
{"Structure (SMILES)": "Cc1cc([C@H]2C[C@H]3[C@@H](CF)SC(N)=N[C@@]3(c3ccc(F)cc3F)CO2)on1", "system": "male 129/SVE wild-type mouse, plasma", "conditions": "subcutaneous, 30 mg/kg, 3 h", "plasma concentration": "0.654 µM"}
{"Structure (SMILES)": "O=C1CCC(N2Cc3cc(CO)c(F)cc3C2=O)C(=O)N1 (centres unmarked)", "system": "CD-1 mouse, male", "conditions": "oral, 10 mg/kg parent drug, 4 h", "plasma concentration": "2.5 ng/mL"}
{"Structure (SMILES)": "CC(C)(C)c1cc(NC(=O)Nc2ccc(Oc3ccnc4[nH]c(=O)cnc34)cc2F)n(-c2ccccc2)n1", "system": "NSG mouse, female, tumor", "conditions": "oral, 20 mg/kg, 1 h after last dose", "plasma concentration": "3.29 µM and 6.07 µM and 7.18 µM and 17.7 µM"}
{"Structure (SMILES)": "CNC(=O)c1cc2c(Oc3ccc(NC(=O)C4(C(=O)Nc5ccc(F)cc5)CC4)cc3)ccnc2cc1OC", "test": "LC-MS/MS", "system": "mouse, NCI-H441 xenograft, plasma", "conditions": "oral, 10 mg/kg once daily for 14 days, 4 h", "plasma concentration": "9.71 µM"}
{"Structure (SMILES)": "O=[N+]([O-])c1ccc(-c2ccc(O)cc2)c2cccnc12", "system": "ICR mouse, male", "conditions": "oral, 5 mg/kg, 0.25 h", "plasma concentration": "65.9 ng/mL"}
{"Structure (SMILES)": "CSc1cc(Oc2ccnc3[nH]c(=O)cnc23)ccc1NC(=O)Nc1cc(C(C)(C)C)nn1-c1ccccc1", "system": "NSG mouse, female, plasma", "conditions": "oral, 20 mg/kg, 1 h after last dose", "plasma concentration": "48.4 µM and 53.5 µM and 53.9 µM and 47.7 µM and 36.1 µM"}
{"Structure (SMILES)": "Cc1cc([C@H]2C[C@H]3[C@@H](C)SC(N)=N[C@@]3(c3ccc(F)cc3F)CO2)on1", "system": "male 129/SVE mouse, plasma", "conditions": "subcutaneous, 50 mg/kg, 5 h", "plasma concentration": "0.692 µM"}
{"Structure (SMILES)": "c1ccc(-c2nc(N3CCC(c4ccccn4)C3)c3ccccc3n2)nc1 (centres unmarked)", "system": "mouse, Balb/c female, plasma", "conditions": "oral, 12.5 mg/kg, 8 h, mean, together with: aminobenzotriazole pretreatment", "plasma concentration": "1630 ng/mL"}
{"Structure (SMILES)": "c1csc(CNc2cc[nH]n2)c1", "system": "mouse, CD-1, male, plasma", "conditions": "oral, 20 mg/kg as HCl salt, 4 h", "plasma concentration": "0.016 µM"}
{"Structure (SMILES)": "CCN1CCN(Cc2ccc(NC(=O)c3ccc(C)c(NC(=O)c4cncc(-c5cccs5)c4)c3)cc2C(F)(F)F)CC1", "system": "C57BL/6 mouse, plasma", "conditions": "intraperitoneal, 15 mg/kg, 24 h, single dose", "plasma concentration": "not detected"}
{"note": "Excerpt of the above:"}
{"Structure (SMILES)": "O=C1CCC(N2Cc3cc(CO)c(F)cc3C2=O)C(=O)N1 (centres unmarked)", "system": "CD-1 mouse, male", "conditions": "oral, 10 mg/kg parent drug, 4 h", "plasma concentration": "2.5 ng/mL"}
{"Structure (SMILES)": "CC(C)(C)c1cc(NC(=O)Nc2ccc(Oc3ccnc4[nH]c(=O)cnc34)cc2F)n(-c2ccccc2)n1", "system": "NSG mouse, female, tumor", "conditions": "oral, 20 mg/kg, 1 h after last dose", "plasma concentration": "3.29 µM and 6.07 µM and 7.18 µM and 17.7 µM"}
